Assay results collected from several papers.
Each line is one published result; not all experiments were run side by side. ± marks the error that the study gave. Values after ≈ are worked out from the molar mass of the structure shown.
Chain of UniProt P51812 (whole entry, looked up): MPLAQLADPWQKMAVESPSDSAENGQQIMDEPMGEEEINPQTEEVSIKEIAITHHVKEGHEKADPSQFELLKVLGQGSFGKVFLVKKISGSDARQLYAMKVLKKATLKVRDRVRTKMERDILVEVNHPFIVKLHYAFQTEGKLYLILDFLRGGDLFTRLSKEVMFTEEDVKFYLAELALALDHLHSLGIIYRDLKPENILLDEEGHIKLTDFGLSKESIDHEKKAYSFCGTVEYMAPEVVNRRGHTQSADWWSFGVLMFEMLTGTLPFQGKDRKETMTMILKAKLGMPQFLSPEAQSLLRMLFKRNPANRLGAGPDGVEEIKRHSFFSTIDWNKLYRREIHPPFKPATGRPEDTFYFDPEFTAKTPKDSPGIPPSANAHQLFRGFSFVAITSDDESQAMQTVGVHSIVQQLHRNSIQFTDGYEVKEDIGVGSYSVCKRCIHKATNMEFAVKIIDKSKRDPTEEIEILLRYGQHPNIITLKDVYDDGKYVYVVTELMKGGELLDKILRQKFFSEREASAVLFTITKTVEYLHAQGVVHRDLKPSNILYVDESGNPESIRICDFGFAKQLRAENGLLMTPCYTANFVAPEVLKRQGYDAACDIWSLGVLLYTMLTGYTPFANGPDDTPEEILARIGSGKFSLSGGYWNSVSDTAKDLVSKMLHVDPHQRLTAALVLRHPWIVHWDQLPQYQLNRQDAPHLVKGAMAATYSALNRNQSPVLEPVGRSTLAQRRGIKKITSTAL

SMILES | target or system | assay | system | setting | quantity | result
COc1cc(/C=N/NC(=S)NN=Cc2ccncc2)ccc1Oc1ccnc2cc(Cl)ccc12 | human lysosomal acid alpha-glucosidase | inhibitor | – | with: pNPG substrate | IC50 | 11.7 ± 0.12 µg/mL (≈ 23.7 µM)
O=C(NCc1ccc(C(F)(F)F)cc1)c1cn(Cc2ccc(F)cc2)c2ccc(Oc3ccccc3)cc2c1=O | MDA-MB-468 | – | – | 72 h | CC50 | 43.1 ± 0.82 µM
COc1ccc(N=Nc2c(N)nn3c(-c4ccc(C)cc4)cc(-c4ccc(OCc5ccccc5)cc4)nc23)cc1 | Candida albicans | broth microdilution | ATCC 10231 | – | MFC/MIC ratio | 2
O=C(NCc1ccccc1)c1cn(Cc2ccc(C(F)(F)F)cc2)c2ccc(Oc3ccccc3)cc2c1=O | MDA-MB-231/LM2-4 | DNS | – | 48 h, 10% FBS | CC50 | 33.1 µM
O=C(Nc1cc(-c2ccc(Cl)cc2)[nH]n1)C1CCCCC1 | Ribosomal protein S6 kinase alpha-3 (RPS6KA3, Homo sapiens, UniProt P51812) | enzyme activity, Dundee kinase panel | – | 10 µM | remaining activity | 69%
CCOc1c([C@H](C)n2nc(C)c3c(N)ncnc32)cc(Cl)c(F)c1[C@@H]1CNC(=O)C1 | – | – | patients with B-cell malignancies, plasma | oral, 20 mg, day 15, monotherapy | half-life | 9.3 ± 3 h
Nc1nn2c(-c3ccc(Cl)cc3Cl)cc(-c3ccc(OCc4ccccc4)cc3)nc2c1N=Nc1ccc(F)cc1 | Escherichia coli | – | ATCC 25955 | – | MBC/MIC ratio | 8
O=C(NCc1ccc(Cl)cc1)c1cn(Cc2ccc(Cl)cc2)c2ccc(Oc3ccccc3)cc2c1=O | MCF7 | – | – | 72 h | CC50 | 22 ± 1.27 µM
COc1cc(/C=N/NC(=S)NN=Cc2sccc2C)ccc1Oc1ccnc2cc(Cl)ccc12 | human lysosomal acid alpha-glucosidase | inhibitor | – | with: pNPG substrate | IC50 | 8.12 ± 0.34 µg/mL (≈ 15.9 µM)

Repeated from above:
SMILES | target or system | assay | system | setting | quantity | result
O=C(NCc1ccc(Cl)cc1)c1cn(Cc2ccc(Cl)cc2)c2ccc(Oc3ccccc3)cc2c1=O | MCF7 | – | – | 72 h | CC50 | 22 ± 1.27 µM
